Results of several laboratories.
Every numbered part comes from another study and shows a few of its results, in no order.

Series 1 — method: competition protein-binding microarray; form: double-stranded DNA, one strand shown; medium: in vitro; tested at: 2 µM; with: Cbf1 competitor, 0.05 µM; reading: higher = stronger binding; endpoint: fluorescence intensity; all sequences stand within: … GTCTTGATTCGCTTGACGCTGCTG
Target: Phosphate system positive regulatory protein PHO4, full length, GST-tagged (PHO4, Saccharomyces cerevisiae, UniProt P07270, residues 1-312)
Notes: whole 60-bp probe, lowest competitor level
Residues (chain): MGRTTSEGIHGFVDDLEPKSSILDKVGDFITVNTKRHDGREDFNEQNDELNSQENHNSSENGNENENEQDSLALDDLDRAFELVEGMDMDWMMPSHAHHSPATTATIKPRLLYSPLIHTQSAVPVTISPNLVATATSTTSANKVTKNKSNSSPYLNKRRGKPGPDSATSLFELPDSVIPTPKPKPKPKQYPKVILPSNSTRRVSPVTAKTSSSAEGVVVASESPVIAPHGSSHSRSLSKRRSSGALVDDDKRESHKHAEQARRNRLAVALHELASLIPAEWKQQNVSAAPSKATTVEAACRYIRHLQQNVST
TTGGGTTTCAACGTTTCCGTGGGTATGGGTCCACAA: 5390 a.u.
AATAATTTATTTTATCATGTGACGCCGATCCGGGTG: 7660 a.u.
TGGATACATTGAAGCTGCGTGACGGATTGGCCTCGG: 6210 a.u.
AAAGCGGTAATTTTTCACGTGCTTTCACATATCTAT: 15900 a.u.
CTTCTGTAAATTTGAGGCGTGGGTGGACGCGCCCCG: 7910 a.u.
TCGCATCCAGGCACACCCGTGTCCTCTTCTTTAATG: 10000 a.u.
CTTCTGTAAATTTGGAGTGTGGGTGGACGCGCCCCG: 5060 a.u.
GTCTTGTCTCATTGTCACGTGTTTTTCCCCACTTCA: 14400 a.u.
CGTCCTAGTGATTGTTCGGTGGGTGCCATGAGGAAG: 6870 a.u.
CATACCCAACCTTGAAAAGTGGGTGAAGATATTTGT: 3390 a.u.
CCACACTGACCGAGTCACGTGTGTTTATTCTGTTTT: 14900 a.u.
CTTCTGTAAATTTGGTCCGTGGGTGGACGCGCCCCG: 6480 a.u.
CGGGGTTAAGTTTGTCACGAGACTTGCTTGCAGCAG: 6480 a.u.
CTAACGAAGGTTTGAACTGTGGGTGACAAGCCAAGT: 3380 a.u.
AAAAAAAGAACTGTGTACGTGATGGCTTTGTCCCCT: 5010 a.u.
CTTCTGTAAATTTTTCACGTGGTTTGACGCGCCCCG: 11200 a.u.
CTTTCCCGATCTTGTAAGGTGGGTGTAGCACATTTG: 4560 a.u.
TGCGCAACAACTTGATGGGTGGGTGTATGTCTAGAA: 5430 a.u.
CTAACGAAGGTTTGGTGCGTGGGTGACAAGCCAAGT: 8840 a.u.
AAATTACTAAGTTTTCACGTGTTTTACCCCGTATGA: 15200 a.u.
CTTCTGTAAATTTGTCACTCGACTTGACGCGCCCCG: 3230 a.u.
CGCTGCCGTTCATGATACGTGTCCTCAGGACGTCTG: 4890 a.u.

Series 2 — method: universal PBM; form: double-stranded DNA, one strand shown; medium: in vitro; tested at: 600 nM; reading: higher = stronger binding; endpoint: E-score
Target: Sal-like protein 4, full length isoform A (SALL4, Homo sapiens, UniProt Q9UJQ4, residues 1-1053)
Sequence of UniProt Q9UJQ4 (whole entry, looked up): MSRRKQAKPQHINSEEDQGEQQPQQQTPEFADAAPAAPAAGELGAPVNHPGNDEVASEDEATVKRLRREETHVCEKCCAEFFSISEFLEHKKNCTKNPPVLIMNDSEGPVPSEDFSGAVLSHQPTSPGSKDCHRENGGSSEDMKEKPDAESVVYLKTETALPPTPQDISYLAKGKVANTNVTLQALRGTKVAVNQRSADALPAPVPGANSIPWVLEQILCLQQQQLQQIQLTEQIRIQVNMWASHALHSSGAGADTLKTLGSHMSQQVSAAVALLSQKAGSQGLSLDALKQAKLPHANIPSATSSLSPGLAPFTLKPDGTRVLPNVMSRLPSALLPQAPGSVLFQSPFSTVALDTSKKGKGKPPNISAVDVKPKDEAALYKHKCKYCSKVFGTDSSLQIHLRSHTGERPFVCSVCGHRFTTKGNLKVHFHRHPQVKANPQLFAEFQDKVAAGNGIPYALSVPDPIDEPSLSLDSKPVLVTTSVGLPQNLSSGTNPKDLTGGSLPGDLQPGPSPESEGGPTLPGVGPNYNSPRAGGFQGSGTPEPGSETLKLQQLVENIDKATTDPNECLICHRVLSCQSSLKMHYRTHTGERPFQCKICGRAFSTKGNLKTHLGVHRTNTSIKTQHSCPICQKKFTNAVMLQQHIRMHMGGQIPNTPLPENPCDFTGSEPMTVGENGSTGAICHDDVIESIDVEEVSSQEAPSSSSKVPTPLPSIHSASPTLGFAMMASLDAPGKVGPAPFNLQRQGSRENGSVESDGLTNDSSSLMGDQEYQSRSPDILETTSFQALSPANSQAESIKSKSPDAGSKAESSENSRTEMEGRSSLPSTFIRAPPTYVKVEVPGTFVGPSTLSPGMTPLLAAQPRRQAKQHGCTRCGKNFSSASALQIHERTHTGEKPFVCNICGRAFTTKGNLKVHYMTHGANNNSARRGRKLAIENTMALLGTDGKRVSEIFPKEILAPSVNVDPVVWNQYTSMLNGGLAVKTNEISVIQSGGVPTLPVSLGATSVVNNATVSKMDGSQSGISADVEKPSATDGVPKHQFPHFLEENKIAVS
Notes: 8-mer, flanks averaged, mean of replicates
AGTCCAAG: 0.0159
GATCCTAA: -0.171
AGTAGGCA: 0.0404
AGCCCTTG: -0.209
AGAGCATA: 0.131
CCCGGCTC: -0.445
CATTGAAG: 0.0555
AAAACGAT: 0.244
AACGCATT: 0.173
ACTTTGGA: 0.2
CCAGGTCA: -0.126
ACCGCGCG: -0.265
ATCCGGTG: -0.137
GTCCGAAC: -0.192
ACAATGAA: 0.273
AGTTGGGC: -0.0928
GTAACTCA: -0.0889
CGTTACTC: -0.0643
CGGATCCG: -0.32
AGGTGACC: -0.209
CACTAGAC: -0.022
GAGCTATC: -0.0741
ATTGCCCC: 0.0764

Series 3 — method: RNA Bind-n-Seq; form: RNA; medium: in vitro; tested at: not given; relative to: input RNA pool; reading: higher = stronger binding; endpoint: bound/input enrichment
Target: RING finger protein unkempt homolog, zinc fingers 1-6, GST-SBP tag (UNK, Homo sapiens, UniProt Q9C0B0, residues 30-357)
Notes: RNA with constant flanks, human-mouse chimeric sites, ends assumed
All sequences stand within: GGGAGUUCUACAGUCCGACGAUC … CAACAGAGGAUUGAGCAUCA
Residues (chain): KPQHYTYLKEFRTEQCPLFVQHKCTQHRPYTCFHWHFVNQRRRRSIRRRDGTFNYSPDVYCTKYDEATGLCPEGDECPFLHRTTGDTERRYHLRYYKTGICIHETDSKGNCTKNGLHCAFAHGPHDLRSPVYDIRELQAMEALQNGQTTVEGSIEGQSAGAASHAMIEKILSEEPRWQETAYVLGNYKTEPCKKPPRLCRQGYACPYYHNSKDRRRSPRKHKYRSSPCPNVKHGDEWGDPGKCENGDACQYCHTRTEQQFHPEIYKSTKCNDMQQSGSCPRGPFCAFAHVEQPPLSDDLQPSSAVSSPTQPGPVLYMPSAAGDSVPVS
CGGAGCCCUCCUCUCCCCCAGGCCCGAGAUAUAACCCACCAGUGCCUUUUGUCUUCCUGUCAGCUCUGUCAAUCACGCCUGUCCUCUCACGCCCACACUCCCCAGCCAAAGUGGGGAGGG: 0.969 ratio
GGGGAGAAACCUUACGAGUGUGUGCAGUGUGGGAAAUCGUAUAGUCAGAGCUCAAACCUCUUCAGACAUCAGAGACGACACAAUGCAGAAAAACUUUUGAAUGUUGUGAAGGUUUAAGAA: 0.742 ratio
UCUUUAAAAAAAAAAUUACAGGAAAAUACAGUGCUUUCCCUCCCAUAGAUCCACGUUCAAGCUCAAAGAGCAAAGGCUUUGCACGGAGCUCAAACAUCUGAUGAAGAAAGAUUUCUGAGA: 0.978 ratio
GUGUCCUGCUUUCAACUUAAAUCACUGAGGCAUCUCUACUGUUCUGUUAAAAUCAGGACUGUAGCGCUGUGUCACCACAUGAGAGUUCAGAAGCAGCCUUUCUGUGGAGGGUGGGAAUGA: 0.112 ratio
CUUUUUAAGAAGAUAUGUGAUGGGAUCUUUUAUACCCCUCAAUAUUUAAACCCUUCAGUGAUUAGCCUUUUGAAACAUAUGCUGCAGGUGGAUCCCAUGAAGAGGGCCGCAAUAAAAGAU: 0.713 ratio
AAAGUGGACUAUGGCGAGUACAUGGAUAAAAACAAUGUGAGGCGGCAAGCAACAACAAUCAUAGCUGAUAAUAUUAUAUUUCUGAGUGACCAGACGAAAGAAAAGGCAUAGAACGGAUGA: 5.68 ratio
GAUAAGAAAAGCUUGUUGGAGACCCGCUUGCAUGUCACUGGUAGAGACCUGAGGUGUCAAAUAGCUGAAACUUUCGGACUUCAAGAAAAUUACAUCAAAAUUGUCAUAAAUAAGAAACAG: 0.437 ratio
UACUGCUGCUUUCAACUUAAAUCACUGAGGCAUCUCUACUGUUCUGUUAAAAUCAGGACUGUAGCGCUGUGUCACCACAUGAGAGUUCAGAAGCAGCCUUUCUGUGGAGGGUGGGAAUGA: 0.111 ratio
AACAGAUUGUCUUUAAGCAUUCCAAGCGAGAAUGCUGGGGUGAUCAUUGUUGCCCAUGUGCCUUCUGUAAUAGAUGGUAAUUAAUUGCAUGUUACAUCUUUCCUUCACUCCAGAAUUGUU: 0.0874 ratio
CCCACGCCUCCUCUCCCACAGGCCCAAGAUGUGACCCACCAGUGCCUUUUGUCUUCCUGUCAGCUCUGUCAAUCACGCCUGUCCUCUCACGCCCACACCAAGUGCCCAAAGUGGGGAGGG: 0.803 ratio
UUGAAAAACACAGAUAUCAAAGUUGUUGACUUUGGAAGUGCAACGUAUGAUGAUGAACAUCACAGUACUUUGGUGUCCACAAGGCACUACAGAGCUCCCGAGGUCAUUUUGGCUUUAGGU: 0.35 ratio

Series 4 — method: RNA Bind-n-Seq; form: RNA; medium: in vitro; tested at: 200 nM; notes: whole 134-nt RNA, ends assumed; with: 150 mM LiCl; relative to: input library; reading: higher = stronger binding; endpoint: log2 enrichment; library: 7-deaza-guanosine replaces G
Target: Ras GTPase-activating protein-binding protein 1, full length (G3BP1, Homo sapiens, UniProt Q13283)
Sequence of UniProt Q13283 (whole entry, looked up): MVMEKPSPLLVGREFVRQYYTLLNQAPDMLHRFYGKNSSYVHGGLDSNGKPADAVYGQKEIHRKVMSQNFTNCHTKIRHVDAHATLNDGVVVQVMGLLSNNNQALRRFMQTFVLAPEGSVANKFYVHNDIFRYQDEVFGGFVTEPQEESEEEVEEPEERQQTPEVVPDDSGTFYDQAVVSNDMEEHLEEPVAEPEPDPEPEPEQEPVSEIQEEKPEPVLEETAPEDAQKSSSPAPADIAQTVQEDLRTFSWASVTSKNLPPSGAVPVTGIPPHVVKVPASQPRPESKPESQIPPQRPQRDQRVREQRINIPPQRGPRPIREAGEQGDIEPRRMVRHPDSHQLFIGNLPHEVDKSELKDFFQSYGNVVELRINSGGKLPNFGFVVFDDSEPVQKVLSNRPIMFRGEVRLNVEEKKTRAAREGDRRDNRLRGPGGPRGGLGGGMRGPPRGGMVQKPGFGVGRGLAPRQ
All sequences stand within: GGGAGUUCUACAGUCCGACGAUC … UGGAAUUCUCGGGUGUCAAGG
AAGUCCUGUGCUACACAUCGUAUGUACCGAAUCGGGGAAAAGGAAAAGGAAAAGGGGAAAGUAUUAUGUUACGCCGUUCGGAUCUGCACU: 0.371
UGGUGGACCCGCAGCAGCUGGGCAUGUUCACGGAGGGCGAGCUGAUGUCGGUGGGUAUGGACACGUUCAUCCACCGCAUCGACUCCACCG: -1.77
CUGUGCUACACAUCGUAUGUACCGAAUCGGGGUUUUUUGGGGUUUUUUGGGUUUUUUGGGGAAAGUAUUAUGUUACGCCGUUCGGAUCUG: 1.39
ACCAUGCAGUUGGGCAUCUUUGGGAAGUGGGGCAAGGGGGGGAUAGGGAGGGGGGUAACACUUUGGGAACAGGUGGUCCCAGGUCGUUUC: 0.285
CUCAAGUCCUGUGCUACACAUCGUAUGUACCGAAUCGGUUGGGGUUGGGGUUGGAAAGUAUUAUGUUACGCCGUUCGGAUCUGCACUUCC: 0.0751
GCAGGAAGUAAAAACAAAUGGAAAUGCUUCGGAUAGUGGCUGGGGUGGGGGUUGCUAAGGAAAGGGUGGGAUGGGAGUGGGUAAAGAGUU: 0.384
CACAGACAACACGCACCCACACAGACACAGAGGGAAGGGGUUGGGAUGGGGACAGGGGGCACAGCAGGGCGGGGUAGGACCCCAGCCCCU: 0.0344
ACCAUGCAGGUGGGCAUCUUUGGGAAGUGGGGCAAGGGGGGGAUAGGAAGGGGGGUAACACUUUGGGAACAGGUGGUCCCAGGUCGUUUC: 0.282
GUCCUGUGCUACACAUCGUAUGUACCGAAUCGGGGAAAGGGGAAAAAGGGGUUUGGGGAAAGUAUUAUGUUACGCCGUUCGGAUCUGCAC: -0.59
UCCUGUGCUACACAUCGUAUGUACCGAAUCGGGGUUUUUGGGGUGGGGAAAAAAAGGGGAAAGUAUUAUGUUACGCCGUUCGGAUCUGCA: -1.08
AAGUCCUGUGCUACACAUCGUAUGUACCGAAUCGGAAAAAAAGGUUUGGAAAAAGGAAAGUAUUAUGUUACGCCGUUCGGAUCUGCACUU: -2.09

For quick reference, copied from above (series 2):
CACTAGAC: -0.022
CGTTACTC: -0.0643
AGAGCATA: 0.131
AGTCCAAG: 0.0159
AAAACGAT: 0.244
AGCCCTTG: -0.209
CGGATCCG: -0.32
ACAATGAA: 0.273
AGTAGGCA: 0.0404
CCCGGCTC: -0.445
